Measurements from different studies.
Compare with care: the assays were run in different laboratories. Several values in a cell are separate wells, animals, samples, runs or records. ± marks the error that the study gave.
POLB: DNA polymerase beta (POLB, Homo sapiens, UniProt P06746)
SCTR: Secretin receptor (SCTR, Homo sapiens, UniProt P47872)
Sequence of UniProt P47872 (whole entry, looked up): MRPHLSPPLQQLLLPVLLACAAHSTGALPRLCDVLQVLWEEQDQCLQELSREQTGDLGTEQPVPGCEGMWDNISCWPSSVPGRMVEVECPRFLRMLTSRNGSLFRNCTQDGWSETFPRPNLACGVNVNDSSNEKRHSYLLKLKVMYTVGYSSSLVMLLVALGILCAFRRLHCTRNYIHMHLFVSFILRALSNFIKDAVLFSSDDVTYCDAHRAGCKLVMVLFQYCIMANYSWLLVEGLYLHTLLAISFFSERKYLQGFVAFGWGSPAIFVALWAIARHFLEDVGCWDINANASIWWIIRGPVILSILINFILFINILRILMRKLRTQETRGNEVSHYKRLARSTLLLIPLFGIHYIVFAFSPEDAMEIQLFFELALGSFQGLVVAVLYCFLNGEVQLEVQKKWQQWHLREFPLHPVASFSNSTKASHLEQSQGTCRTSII
Sequence of UniProt P02769 (whole entry, unmodified, looked up): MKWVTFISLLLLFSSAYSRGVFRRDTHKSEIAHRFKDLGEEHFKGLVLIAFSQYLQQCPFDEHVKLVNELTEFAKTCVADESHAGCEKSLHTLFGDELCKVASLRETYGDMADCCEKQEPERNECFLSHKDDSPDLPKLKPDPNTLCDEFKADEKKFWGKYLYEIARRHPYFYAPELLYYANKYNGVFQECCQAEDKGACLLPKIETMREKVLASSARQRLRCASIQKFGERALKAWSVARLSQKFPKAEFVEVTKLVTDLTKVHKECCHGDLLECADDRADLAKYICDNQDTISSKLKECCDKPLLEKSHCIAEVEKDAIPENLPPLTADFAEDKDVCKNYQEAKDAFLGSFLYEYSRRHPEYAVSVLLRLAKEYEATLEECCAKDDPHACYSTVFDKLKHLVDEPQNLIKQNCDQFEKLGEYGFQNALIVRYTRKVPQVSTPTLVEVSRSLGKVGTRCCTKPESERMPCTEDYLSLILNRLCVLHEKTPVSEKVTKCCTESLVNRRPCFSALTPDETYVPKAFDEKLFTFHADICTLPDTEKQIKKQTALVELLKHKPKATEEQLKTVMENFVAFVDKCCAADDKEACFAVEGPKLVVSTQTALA
Sequence of UniProt P28335 (whole entry, looked up): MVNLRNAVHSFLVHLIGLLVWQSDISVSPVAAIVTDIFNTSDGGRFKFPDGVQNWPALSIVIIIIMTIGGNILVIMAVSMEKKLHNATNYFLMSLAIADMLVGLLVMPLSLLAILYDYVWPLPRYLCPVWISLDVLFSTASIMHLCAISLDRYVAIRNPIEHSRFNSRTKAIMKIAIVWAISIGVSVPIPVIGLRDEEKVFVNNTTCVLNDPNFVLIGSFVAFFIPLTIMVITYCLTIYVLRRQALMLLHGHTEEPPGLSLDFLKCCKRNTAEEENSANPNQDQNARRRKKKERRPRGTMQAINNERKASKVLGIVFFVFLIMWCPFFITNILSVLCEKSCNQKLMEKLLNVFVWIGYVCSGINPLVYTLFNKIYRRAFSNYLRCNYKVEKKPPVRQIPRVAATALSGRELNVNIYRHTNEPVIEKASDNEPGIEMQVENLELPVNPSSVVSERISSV
Sequence of UniProt Q13547 (whole entry, looked up): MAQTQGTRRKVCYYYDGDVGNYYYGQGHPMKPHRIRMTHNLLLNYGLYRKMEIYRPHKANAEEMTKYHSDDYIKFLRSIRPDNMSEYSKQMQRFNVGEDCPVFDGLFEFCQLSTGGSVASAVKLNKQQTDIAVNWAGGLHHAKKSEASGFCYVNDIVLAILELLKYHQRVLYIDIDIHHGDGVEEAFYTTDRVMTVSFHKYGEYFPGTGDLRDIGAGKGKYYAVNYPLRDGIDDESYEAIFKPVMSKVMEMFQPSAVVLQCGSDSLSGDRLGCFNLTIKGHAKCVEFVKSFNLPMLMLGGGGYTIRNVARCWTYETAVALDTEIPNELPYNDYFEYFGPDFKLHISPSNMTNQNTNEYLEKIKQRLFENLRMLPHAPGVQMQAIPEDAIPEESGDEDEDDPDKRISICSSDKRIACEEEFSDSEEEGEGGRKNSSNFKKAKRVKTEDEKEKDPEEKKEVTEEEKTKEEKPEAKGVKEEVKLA
Sequence of UniProt P13866 (whole entry, looked up): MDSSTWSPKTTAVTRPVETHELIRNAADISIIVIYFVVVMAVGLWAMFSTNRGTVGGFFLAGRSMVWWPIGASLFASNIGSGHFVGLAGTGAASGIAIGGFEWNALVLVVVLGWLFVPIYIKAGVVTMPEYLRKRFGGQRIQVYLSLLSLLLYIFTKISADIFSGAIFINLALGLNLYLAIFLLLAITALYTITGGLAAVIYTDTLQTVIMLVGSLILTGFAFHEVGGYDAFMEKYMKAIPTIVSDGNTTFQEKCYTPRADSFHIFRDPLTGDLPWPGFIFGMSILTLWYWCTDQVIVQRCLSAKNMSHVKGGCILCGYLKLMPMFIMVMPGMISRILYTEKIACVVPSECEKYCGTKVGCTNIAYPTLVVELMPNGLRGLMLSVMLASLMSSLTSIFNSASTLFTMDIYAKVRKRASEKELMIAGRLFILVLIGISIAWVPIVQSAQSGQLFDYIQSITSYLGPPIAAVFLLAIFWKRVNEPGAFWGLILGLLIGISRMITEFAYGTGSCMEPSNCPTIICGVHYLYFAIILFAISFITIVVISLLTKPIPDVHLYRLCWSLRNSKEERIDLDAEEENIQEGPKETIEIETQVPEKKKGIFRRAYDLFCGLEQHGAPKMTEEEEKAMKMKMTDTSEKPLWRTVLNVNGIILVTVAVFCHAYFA
Sequence of UniProt P11103 (whole entry, looked up): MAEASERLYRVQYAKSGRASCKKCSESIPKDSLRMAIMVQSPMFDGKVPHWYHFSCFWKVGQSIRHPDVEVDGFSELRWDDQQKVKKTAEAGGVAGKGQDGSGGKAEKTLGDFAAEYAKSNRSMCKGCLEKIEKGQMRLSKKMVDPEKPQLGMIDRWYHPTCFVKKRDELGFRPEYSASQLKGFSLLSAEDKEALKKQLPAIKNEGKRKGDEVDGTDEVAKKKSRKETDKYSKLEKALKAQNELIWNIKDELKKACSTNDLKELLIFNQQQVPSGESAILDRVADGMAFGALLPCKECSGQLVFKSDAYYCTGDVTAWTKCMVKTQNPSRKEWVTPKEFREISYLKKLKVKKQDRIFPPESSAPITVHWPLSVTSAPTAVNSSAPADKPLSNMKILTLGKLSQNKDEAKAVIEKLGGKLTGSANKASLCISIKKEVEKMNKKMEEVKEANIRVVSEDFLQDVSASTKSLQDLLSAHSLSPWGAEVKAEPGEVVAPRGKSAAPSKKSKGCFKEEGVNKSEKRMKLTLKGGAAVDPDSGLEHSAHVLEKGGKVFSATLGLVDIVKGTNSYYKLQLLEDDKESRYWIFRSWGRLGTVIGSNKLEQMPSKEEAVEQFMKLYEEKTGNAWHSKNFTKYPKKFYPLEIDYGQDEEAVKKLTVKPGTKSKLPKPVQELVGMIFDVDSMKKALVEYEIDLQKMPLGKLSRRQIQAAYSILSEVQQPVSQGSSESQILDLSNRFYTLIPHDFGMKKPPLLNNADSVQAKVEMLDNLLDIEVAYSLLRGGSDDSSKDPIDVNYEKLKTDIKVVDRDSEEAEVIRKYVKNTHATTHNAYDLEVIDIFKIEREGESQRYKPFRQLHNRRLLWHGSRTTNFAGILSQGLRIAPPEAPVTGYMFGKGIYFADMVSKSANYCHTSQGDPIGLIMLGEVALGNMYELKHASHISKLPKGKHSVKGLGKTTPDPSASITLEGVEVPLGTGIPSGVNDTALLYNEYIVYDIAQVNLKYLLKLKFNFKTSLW
Sequence of UniProt O43283 (whole entry, looked up): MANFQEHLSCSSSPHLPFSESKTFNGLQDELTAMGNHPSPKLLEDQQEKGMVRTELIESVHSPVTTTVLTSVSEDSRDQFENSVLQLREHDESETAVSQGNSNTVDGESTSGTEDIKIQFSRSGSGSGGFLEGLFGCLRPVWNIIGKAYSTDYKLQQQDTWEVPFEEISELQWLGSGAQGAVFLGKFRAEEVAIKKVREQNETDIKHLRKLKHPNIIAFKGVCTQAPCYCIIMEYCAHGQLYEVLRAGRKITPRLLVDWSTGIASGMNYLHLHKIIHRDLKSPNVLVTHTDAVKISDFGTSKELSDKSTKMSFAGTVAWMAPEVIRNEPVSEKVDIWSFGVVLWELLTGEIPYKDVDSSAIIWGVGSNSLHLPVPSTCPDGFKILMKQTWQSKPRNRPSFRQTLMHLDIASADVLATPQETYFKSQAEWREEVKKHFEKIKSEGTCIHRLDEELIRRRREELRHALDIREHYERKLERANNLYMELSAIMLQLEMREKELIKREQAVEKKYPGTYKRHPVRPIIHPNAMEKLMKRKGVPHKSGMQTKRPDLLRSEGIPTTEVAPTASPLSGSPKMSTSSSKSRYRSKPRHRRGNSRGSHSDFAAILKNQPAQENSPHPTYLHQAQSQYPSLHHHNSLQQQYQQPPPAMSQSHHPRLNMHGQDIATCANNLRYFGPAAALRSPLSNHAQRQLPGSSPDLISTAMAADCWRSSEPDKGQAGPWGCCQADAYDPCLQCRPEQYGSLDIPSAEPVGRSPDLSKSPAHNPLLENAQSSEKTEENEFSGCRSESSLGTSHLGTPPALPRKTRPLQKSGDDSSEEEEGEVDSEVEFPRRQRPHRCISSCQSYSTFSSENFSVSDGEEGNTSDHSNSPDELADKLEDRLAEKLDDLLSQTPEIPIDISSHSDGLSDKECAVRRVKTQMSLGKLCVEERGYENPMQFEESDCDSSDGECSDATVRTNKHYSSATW

CNC(=O)c1ccc(N2CCN(Cc3ccc4nc(C)c(=O)[nH]c4c3F)CC2)c([18F])n1  reduction of binding (Poly [ADP-ribose] polymerase 1 (Mus musculus, UniProt P11103); in vitro autoradiography; mice, whole brain sections; dose not given; relative to: knockout over wild type): > 65%
OC[C@H]1O[C@@H](Sc2ccccc2)[C@H](O)[C@@H](O)[C@@H]1O  fluorescence ratio (SLC5A1 (Homo sapiens, UniProt P13866); membrane depolarization, substrate, FRET; CHO expressing hSGLT1; 10 µM; relative to: non-transfected CHO cells): 1.15
Nc1ccc(-c2cccs2)cc1NC(=O)c1ccccc1  ligand efficiency (HDAC1 (Homo sapiens, UniProt Q13547); inhibitor): 0.36
Nc1nc2c(ncn2[C@H]2C[C@H](O)[C@@H](COP(=O)(O)OP(=O)(O)CP(=O)(O)O)O2)c(=O)[nH]1  kpol/Kd (POLB; nucleotide incorporation, substrate, single turnover kinetics; dG misincorporation opposite A): 2.6 ± 0.45 M⁻¹ s⁻¹
COc1ccc(-c2cc(C(F)(F)F)nc(NCc3ccccc3)n2)cc1OC  Emax (SCTR; cAMP, agonist): 20%
COC(=O)C1=Cc2ccccc2S1(=O)=O  E3 ligase activity (E3 ubiquitin-protein ligase Praja-1 (Pja1, Mus musculus, UniProt O55176); in vitro ubiquitination; 0, 5, 10 µM): no effect
N#Cc1cccc(-c2ccc(=O)n(Cc3cccc(-c4ncc(OCC5CCN(CCCCC(=O)Nc6cccc7c6C(=O)N(C6CCC(=O)NC6=O)C7=O)CC5)cn4)c3)n2)c1 (centres unmarked)  Dmax (MET (Homo sapiens, UniProt P08581); degrader; EBC-1): > 95%
Cc1ncsc1-c1ccc([C@H](C)NC(=O)[C@@H]2C[C@@H](O)CN2C(=O)[C@@H](NC(=O)c2cnc(C(=O)N3CCC(c4cc(Nc5cc(C#N)ccn5)nc(N5CCC(F)(F)C5)c4)CC3)cn2)C(C)(C)C)cc1  lowest degrading concentration (MAP3K13 (Homo sapiens, UniProt O43283); protein degradation, degrader, Western blot; CAL-33, dox-induced MAP3K13 overexpression; 24 h): 500 nM
Nc1ncnc2c1ncn2[C@@H]1O[C@H](CO)[C@@H](O[C@H]2O[C@H](CO)[C@@H](OP(=O)(O)O)[C@H](OP(=O)(O)O)[C@H]2O)[C@H]1O  ΔpKd (Inositol 1,4,5-trisphosphate-gated calcium channel ITPR1, IP3-binding core (Itpr1, Rattus norvegicus, UniProt P29994, R568Q); binding, 3H-IP3 competition; IP3-binding core, unit not given; relative to: R568Q over wild type): 0.48 ± 0.12
CC(C)CCC[C@@H](C)[C@H]1CC[C@H]2[C@@H]3CC=C4C[C@@H](OS(=O)(=O)O)CC[C@]4(C)[C@H]3CC[C@]12C  maximal inhibition (Prothrombin (F2, Homo sapiens, UniProt P00734); enzyme activity, inhibitor, chromogenic substrate; 10 min, pH 7.4, 25 °C, 0.02% Tween 80, added: Spectrozyme TH): 71.3 ± 4.2%
Nc1nc2c(ncn2[C@H]2C[C@H](O)[C@@H](COP(=O)(O)OP(=O)(O)C(Cl)(Cl)P(=O)(O)O)O2)c(=O)[nH]1  kpol (POLB; nucleotide incorporation rate, substrate, single-turnover kinetics; single-nucleotide gapped DNA; 37 °C, wild type, misincorporation, added: dGTP opposite template A): 0.0006 ± 0.0001 s⁻¹
COc1ccc(-c2cc(C(F)(F)F)nc(SCCC(=O)Nc3cc(F)ccc3F)n2)cc1  Emax (SCTR; cAMP accumulation, positive allosteric modulator; CHO-K1 overexpressing SCTR; added: EC10-EC20 secretin peptide mix; relative to: EC95 peptide mix): 26% and ~30%
Cc1ccc2ccc3ccc(C)nc3c2n1.Cc1ccc2ccc3ccc(C)nc3c2n1.O.[Cl-].[Cl-].[Cl-].[Yb+3]  ΔS° (Albumin (ALB, Bos taurus, UniProt P02769); fluorescence quenching, van't Hoff; 290 to 303 K): -214.93 ± 0.03 J/mol/K
OC(c1cccc(C2=CCCNC2)n1)C(F)(F)F (centres unmarked)  Emax (HTR2C (Homo sapiens, UniProt P28335); β-arrestin recruitment, agonist): 72.6%
